Assay results from different studies.
Each numbered part is a random draw from the data of one study; scales do not carry over between parts. Positions count from the first letter of the parent shown.

Set 1
Target: Centromere-binding protein 1, full length, N-terminal tag (CBF1, Saccharomyces cerevisiae, UniProt P17106, residues 1-351)
UniProt P17106, sequence (whole entry, looked up): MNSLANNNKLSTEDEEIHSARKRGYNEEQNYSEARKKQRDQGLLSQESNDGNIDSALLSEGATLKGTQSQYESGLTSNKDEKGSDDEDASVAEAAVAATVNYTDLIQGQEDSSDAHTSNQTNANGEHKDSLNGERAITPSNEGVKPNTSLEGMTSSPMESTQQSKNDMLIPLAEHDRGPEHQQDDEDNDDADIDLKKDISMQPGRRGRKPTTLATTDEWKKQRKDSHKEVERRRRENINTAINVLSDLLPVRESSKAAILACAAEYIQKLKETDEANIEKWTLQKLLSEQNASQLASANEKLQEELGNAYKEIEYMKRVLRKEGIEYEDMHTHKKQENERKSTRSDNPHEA
Method: protein-binding microarray
Molecule type: double-stranded DNA, one strand shown
Medium: in vitro
Concentration: 0.8 µM
Notes: whole 60-bp probe, no competitor
Direction: higher = stronger binding
Constant ends, left off below: … GTCTTGATTCGCTTGACGCTGCTG
Strand	fluorescence intensity [a.u.]
CTACAGACATTCTGTCACCTGGTGAAAAACGACTTC	1020
GAACACACACAGGCGCACACGAGAACAGATGAGTAG	608
GAAGTATATGATTGCCACGAAATAATCGTCGATTAG	517
CTATTTCTTACGCGTTGCGTGTAAAACATCCTCTTC	496
GAAAGGGTAACATATTATCACGTGCAGCCCAGGTAG	10100
CTAGGGTTTTTTGTTCACGCGGGCCGCAGTTGTTTC	600
GAATGGCAAAAGGATTCCGTGATCTGTGTTCCCTAG	564
GAATTATAATTCGCTCTCATGATCACCACATCTTAG	667
GAAATGAGTAAGAGGCACATGCACTAGAGCATATAG	682
GAAATAGTTTAGCATTGCGTGGAGGGATACTGATAG	505
CTATAGTCACGTGGTCATCACGTGAGCATAATATTC	41700
CTATCTGCAAGTTACCGTGTCACCTTCACAGTTTTC	606
GAAAACTTAAAAGGACACGTTTGAACTCATAATTAG	539
GAATCAGATCGCATTCATCTGATTTCTTACTGATAG	494
GAAAAATGAAGAAACCAGGTGAAGAGATCCTTTTAG	504
GAAATGAGTCAAAACCACGTGTAATTAATAAAGTAG	3770
CTAACCAAGCAAGAACACGTCACCGCATTAATATTC	537
CTACTGATATTTTTTGACGTCACTTAGTAAGCATTC	535
GAAGAGTCATTTGGTCATGAGAGTAGCTATGTTTAG	633
CTAGTGGGCATAGATCACGCTTCAGCCGCTCTGTTC	857

Set 2
Target: CCNB1, cyclin fold, Cln2 fusion (human)
Method: yeast growth competition, sequencing
Medium: yeast
Notes: strong parent motif
Relative to: not given
Direction: higher = stronger binding
Starting sequence: MICAL3 docking peptide (human); LQLRRQLSFSEDS
Variant	normalised enrichment score
LQLRRQLSFSEWS [D12W]	2.84
LQLRRQLWFSEDS [S8W]	0.985
LQLERQLSFSEDS [R4E]	3.95
LQLRRQLSFSEGS [D12G]	4.52
LQLRRQLSFSEIS [D12I]	3.85
LQLRRTLSFSEDS [Q6T]	3.78
LQLRNQLSFSEDS [R5N]	0.696
LQLRKQLSFSEDS [R5K]	1.87
LQLRRQLSFSIDS [E11I]	1.49
LQLRRQLSFSEQS [D12Q]	3.98
LQNRRQLSFSEDS [L3N]	0.168
LQLRRQLPFSEDS [S8P]	0.535
LQLARQLSFSEDS [R4A]	4.45
LQARRQLSFSEDS [L3A]	2.33
LQLRRQLSFSERS [D12R]	3.2
LQLMRQLSFSEDS [R4M]	3.33
LQLRRQKSFSEDS [L7K]	0.227
LQLRRQPSFSEDS [L7P]	0.282
LQLRRQVSFSEDS [L7V]	0.352
LQLRRQLSFSLDS [E11L]	2.6
LQLRRQLEFSEDS [S8E]	2.45
LQLRRFLSFSEDS [Q6F]	0.345
LQLRHQLSFSEDS [R5H]	0.362
LQLRRQLSFSSDS [E11S]	3.99
LQLYRQLSFSEDS [R4Y]	3.77

Set 3
Target: ABI1, truncated, D143A, DHFR fusion (Arabidopsis thaliana)
Method: DHFR PCA, deep sequencing
Medium: yeast
Notes: methotrexate growth selection, single substitutions
Together with: (+)-ABA 2500 µM
Relative to: wild-type fitted maximum
Direction: higher = stronger binding
Starting sequence: PYL1, truncated, DHFR fusion (Arabidopsis thaliana); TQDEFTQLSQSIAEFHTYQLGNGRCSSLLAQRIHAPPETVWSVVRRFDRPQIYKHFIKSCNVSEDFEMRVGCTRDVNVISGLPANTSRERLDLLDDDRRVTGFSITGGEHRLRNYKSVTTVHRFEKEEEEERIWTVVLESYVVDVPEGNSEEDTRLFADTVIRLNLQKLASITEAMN; partner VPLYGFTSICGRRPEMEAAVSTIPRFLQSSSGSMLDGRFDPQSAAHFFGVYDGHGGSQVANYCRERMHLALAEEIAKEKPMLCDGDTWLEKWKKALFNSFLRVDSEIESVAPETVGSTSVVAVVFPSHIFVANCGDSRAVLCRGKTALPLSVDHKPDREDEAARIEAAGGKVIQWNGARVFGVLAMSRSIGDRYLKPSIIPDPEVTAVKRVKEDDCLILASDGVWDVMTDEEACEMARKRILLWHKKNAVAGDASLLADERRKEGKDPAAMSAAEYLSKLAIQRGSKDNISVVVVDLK
Variant	relative binding score [%]
L94D	52.4
V142E	93.1
V118F	90.1
K58R	96.1
T1G	94.5
A158R	1.87
T120P	-7.73
E128K	98.6
E125G	99.9
Y141W	80.6
A30D	92.6
S171Q	93
N114G	104
E139G	62.7
T73N	93.5
N22C	98.8

Set 4
Target: Prothrombin, mature alpha-thrombin (F2, Homo sapiens, UniProt P00734)
Method: aptamer microarray, sandwich
Molecule type: DNA with 2'F-ANA
Medium: in vitro
Concentration: 200 nM
Notes: whole 15-mer aptamer, many near background
Together with: Cy3 exosite-II aptamer, 400 nM
Direction: higher = stronger binding
Strand: GGTTGGTGTGGTTGG
Modification	mean fluorescence intensity [a.u.]
2'F-ANA at 1 3 7 9 10 12 13 14	61.8
2'F-ANA at 1 3 7 8 10 13 15	78.5
2'F-ANA at 2 4 5 7 11 13 15	52.3
2'F-ANA at 1 3 4 12 13 14 15	101
2'F-ANA at 1 7 9 11 13 14	53.2
2'F-ANA at 1 2 3 6 9 11 12 14 15	78.2
2'F-ANA at 6 10 11 12 15	180
2'F-ANA at 2 3 5 7 8 9 11 15	94.8
2'F-ANA at 2 3 7 9 11 12	876
2'F-ANA at 5 6 8 9 10 11 14 15	46.9
2'F-ANA at 1 4 6 8 12 15	269
2'F-ANA at 1 2 4 5 8 10 11	45.9
2'F-ANA at 1 3 4 5 7 8 9 10	47.2
2'F-ANA at 1 2 5 7 10 12	57.8
2'F-ANA at 2 3 4 14 15	327
2'F-ANA at 1 3 5 7 10 13 15	45.7
2'F-ANA at 1 8 9 11 13 14	52.9
2'F-ANA at 2 4 6 7 9 11 12 14 15	94.6
2'F-ANA at 1 2 4 5 6 7 8 9 10 15	49.6
2'F-ANA at 1 2 4 5 8 10 15	49.3
2'F-ANA at 1 3 4 5 7 8 9 10 12 13 14 15	51.7
2'F-ANA at 4 5 7 8 9 15	73.6
2'F-ANA at 4 5 6 8 9 11 13 14 15	51.3
2'F-ANA at 1 3 5 6 7 9 12 13 14 15	45.4
2'F-ANA at 6 8 9 10 11	137

Set 5
Target: Myc proto-oncogene protein, bHLH-zipper, MAX partner unstated (MYC, Homo sapiens, UniProt P01106, residues 368-449)
UniProt P01106, sequence (368-449, looked up): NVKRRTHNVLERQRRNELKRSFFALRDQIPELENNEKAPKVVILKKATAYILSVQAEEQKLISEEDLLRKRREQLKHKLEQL
Method: protein-binding microarray
Molecule type: double-stranded DNA, one strand shown
Medium: in vitro
Concentration: not given
Notes: k-mer, scored over probes, only values ≥0.25
Direction: higher = stronger binding
Strand	E-score
CCATGCTA	0.36
ACGAGGAA	0.342
ACATGGGG	0.404
CGTGGCAG	0.398
AACCACGC	0.429
CGTACCAC	0.296
AAACGTGC	0.395
GCATGAAC	0.268
ACGTGTCT	0.416
GAGCGTGC	0.345
ACACGTGT	0.496
CATGCACA	0.427
ATCGCGTG	0.402
CACGAGGA	0.458
AACATCGT	0.298
GTGCCCCA	0.261
CCTCATGA	0.346
CATGAGCC	0.278
CACGCAAC	0.294
ACATGGTA	0.384

Set 6
Target: Sal-like protein 4, full length isoform A (SALL4, Homo sapiens, UniProt Q9UJQ4, residues 1-1053)
UniProt Q9UJQ4, sequence (whole entry, looked up): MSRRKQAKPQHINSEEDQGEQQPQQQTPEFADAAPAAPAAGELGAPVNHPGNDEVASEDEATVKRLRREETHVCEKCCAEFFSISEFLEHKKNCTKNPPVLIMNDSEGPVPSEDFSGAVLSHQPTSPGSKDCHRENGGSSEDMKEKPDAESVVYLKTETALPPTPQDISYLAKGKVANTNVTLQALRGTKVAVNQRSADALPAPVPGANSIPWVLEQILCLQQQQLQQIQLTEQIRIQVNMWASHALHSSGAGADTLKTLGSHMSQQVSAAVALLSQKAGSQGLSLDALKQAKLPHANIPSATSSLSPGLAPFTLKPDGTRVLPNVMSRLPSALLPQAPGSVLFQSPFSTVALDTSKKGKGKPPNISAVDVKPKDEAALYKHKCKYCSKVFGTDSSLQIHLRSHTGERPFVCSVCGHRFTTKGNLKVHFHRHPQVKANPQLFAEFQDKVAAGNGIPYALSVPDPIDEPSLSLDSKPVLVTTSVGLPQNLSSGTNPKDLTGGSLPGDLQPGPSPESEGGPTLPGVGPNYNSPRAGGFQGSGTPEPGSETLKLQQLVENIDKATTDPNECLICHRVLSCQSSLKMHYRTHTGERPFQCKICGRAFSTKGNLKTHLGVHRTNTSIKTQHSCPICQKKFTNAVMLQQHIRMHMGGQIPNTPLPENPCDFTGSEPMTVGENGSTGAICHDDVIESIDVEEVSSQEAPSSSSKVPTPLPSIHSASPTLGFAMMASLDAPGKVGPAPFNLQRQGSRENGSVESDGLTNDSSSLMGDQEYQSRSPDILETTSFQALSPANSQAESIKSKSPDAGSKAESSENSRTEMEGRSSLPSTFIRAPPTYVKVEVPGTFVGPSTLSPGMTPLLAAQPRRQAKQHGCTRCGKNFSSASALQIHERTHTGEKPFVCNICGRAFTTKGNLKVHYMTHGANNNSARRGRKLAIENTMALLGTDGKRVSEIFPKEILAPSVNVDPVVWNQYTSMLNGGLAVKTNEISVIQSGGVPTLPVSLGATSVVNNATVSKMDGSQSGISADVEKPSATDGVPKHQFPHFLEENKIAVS
Method: universal PBM
Molecule type: double-stranded DNA, one strand shown
Medium: in vitro
Concentration: 600 nM
Notes: 8-mer, flanks averaged, mean of replicates
Direction: higher = stronger binding
Strand	E-score
AGCCGCTC	-0.116
GGGTTGTA	0.0167
GTGCCGTA	-0.129
CCTACATA	0.155
CGGGCCAG	-0.32
CTCTTGAA	0.158
GACGTTCA	-0.0222
GGTTATCA	0.0844
AATGGGTC	-0.0985
ACATCGTC	0.0284
CACTGTGG	-0.309
GAGCATAC	0.0532
ACCTGAGT	-0.0803
TAACGACA	0.115
TAACTGTA	0.251
CTTAAATA	0.228
CAATTTGC	0.0262
ATCCTCCG	-0.179
CAAAATGG	0.17
ACCTGGGC	-0.2
AATGCCCC	-0.225

Excerpt of the above (set 2):
Variant	normalised enrichment score
LQLRNQLSFSEDS [R5N]	0.696
LQLERQLSFSEDS [R4E]	3.95
LQLRRQLSFSEQS [D12Q]	3.98
LQLARQLSFSEDS [R4A]	4.45
LQLYRQLSFSEDS [R4Y]	3.77
LQLRRQLSFSEIS [D12I]	3.85
LQLRKQLSFSEDS [R5K]	1.87
LQLRRQLSFSEWS [D12W]	2.84
LQLRRQLSFSIDS [E11I]	1.49
LQLRRQKSFSEDS [L7K]	0.227
LQLRRQLPFSEDS [S8P]	0.535
LQLRRFLSFSEDS [Q6F]	0.345
LQLMRQLSFSEDS [R4M]	3.33
LQLRRQLSFSEGS [D12G]	4.52
LQARRQLSFSEDS [L3A]	2.33
LQLRRQLEFSEDS [S8E]	2.45
LQLRRTLSFSEDS [Q6T]	3.78
LQLRRQVSFSEDS [L7V]	0.352
